Measurements from different studies.
Compare with care: the assays were run in different laboratories. ± gives the spread as reported.
Target: fMet-Leu-Phe receptor (FPR1, Homo sapiens, UniProt P21462)
Residues used in one study (P21462 1-350): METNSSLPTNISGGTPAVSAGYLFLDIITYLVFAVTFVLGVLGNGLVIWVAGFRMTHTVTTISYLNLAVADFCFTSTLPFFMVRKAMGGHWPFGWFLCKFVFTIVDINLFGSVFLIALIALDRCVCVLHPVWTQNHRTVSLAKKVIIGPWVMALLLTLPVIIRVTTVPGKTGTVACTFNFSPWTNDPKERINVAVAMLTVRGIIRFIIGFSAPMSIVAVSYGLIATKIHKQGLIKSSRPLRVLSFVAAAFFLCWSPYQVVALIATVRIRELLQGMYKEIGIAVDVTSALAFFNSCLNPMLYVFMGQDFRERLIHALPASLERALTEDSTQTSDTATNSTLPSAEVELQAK

Compound	test	test system	conditions	endpoint	value
O=C(Nc1ccc([N+](=O)[O-])cc1)N[C@@H](Cc1c[nH]c2ccccc12)C(=O)NCC1(c2ccccn2)CCCCC1	β-arrestin recruitment, agonist	CHO-K1 expressing FPR1		EC50	18.5 ± 5.1 µM
CCCC(C(=O)Nc1ccc(Br)cc1)n1nc(C)cc(Cc2cccc(OC)c2)c1=O (racemic)	calcium mobilization, agonist	HL-60 transfected with FPR1		EC50	2.8 µM
COc1ccc2nc(SCC(=O)Nc3ccc(S(N)(=O)=O)cc3)[nH]c2c1	calcium mobilization, agonist	HL-60 transfected with FPR1		EC50	14.9 µM
COc1ccc(OC)c(C2C(C(=O)c3ccccc3)=C(O)C(=O)N2CCCN2CCOCC2)c1 (centres unmarked)	fMLF-induced calcium mobilization, antagonist	HL-60 expressing FPR1	30 min pretreatment, inactive if none at 50 µM, with: 5 nM fMLF	IC50	5 µM
COc1ccc2nc(SCC(=O)Nc3ccc(OC(F)(F)F)cc3)[nH]c2c1	calcium mobilization, agonist	HL-60 transfected with FPR1		EC50	11.6 µM
COc1cccc(Cc2cc(C)nn(C(C(=O)Nc3ccc(Br)cc3)c3ccccc3)c2=O)c1 (racemic)	calcium mobilization, agonist	HL-60 transfected with FPR1		EC50	3.1 µM
COCCN1C(=O)C(O)=C(C(=O)c2ccc(C)cc2)C1c1ccc(OC)cc1OC (centres unmarked)	fMLF-induced calcium mobilization, antagonist	HL-60 expressing FPR1	30 min pretreatment, inactive if none at 50 µM, with: 5 nM fMLF	IC50	10.5 µM
N#Cc1ccc(C[C@H](NC(=O)Nc2ccc(O)cc2)C(=O)NCC2(c3ccccc3)CC2)cc1	calcium mobilization	FPR1-transfected HL-60	desensitization pretreatment, with: fMLF 5 nM	IC50	16.4 ± 3.4 µM
CCOc1ccc2nc(SCC(=O)Nc3ccc(Br)cc3)[nH]c2c1	calcium mobilization, agonist	HL-60 transfected with FPR1		EC50	13.2 µM
CCCCC(C(=O)Nc1ccc(Br)cc1)n1nc(C)cc(Cc2cccc(OC)c2)c1=O (racemic)	calcium mobilization, agonist	HL-60 transfected with FPR1		EC50	1.1 µM
O=C(Nc1ccc([N+](=O)[O-])cc1)N[C@H](Cc1c[nH]c2ccccc12)C(=O)NCC1(c2ccccc2)CCCCC1	fMLF-induced Ca2+ flux, antagonist	HL-60 expressing FPR1	up to 50 µM, 30 min, with: fMLF 5 nM	IC50	no inhibition

Some of these lines once more:
Compound	test	test system	conditions	endpoint	value
COCCN1C(=O)C(O)=C(C(=O)c2ccc(C)cc2)C1c1ccc(OC)cc1OC (centres unmarked)	fMLF-induced calcium mobilization, antagonist	HL-60 expressing FPR1	30 min pretreatment, inactive if none at 50 µM, with: 5 nM fMLF	IC50	10.5 µM
